Assay results pooled from the literature.
Protocols differ between the studies behind these lines. Numbers after ± are the reported error.
Sequence of UniProt Q16539 (whole entry, looked up): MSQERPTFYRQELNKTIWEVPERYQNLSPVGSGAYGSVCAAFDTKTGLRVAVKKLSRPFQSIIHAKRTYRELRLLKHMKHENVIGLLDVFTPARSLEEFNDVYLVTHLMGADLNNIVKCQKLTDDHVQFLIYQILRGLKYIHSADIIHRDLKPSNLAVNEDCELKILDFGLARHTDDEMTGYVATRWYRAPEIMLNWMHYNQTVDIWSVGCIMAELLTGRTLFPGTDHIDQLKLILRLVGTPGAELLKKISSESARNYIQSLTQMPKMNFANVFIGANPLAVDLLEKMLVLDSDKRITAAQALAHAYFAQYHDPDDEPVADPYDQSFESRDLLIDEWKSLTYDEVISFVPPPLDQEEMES

SMILES | target or system | test | system | conditions | how to read | quantity | result
CCc1ccccc1N1CC(c2nc3ccccc3n2CCCCOc2ccccc2OC)CC1=O (stereo not shown) | Vero-E6 | CellTiter-Glo ATP |  | 72 h, first round 5-point | baseline: DMSO 0%, hyamine -100%, more negative, more toxic | maximum response | -10.1%
C[C@H](NC(=O)c1c(C(F)F)nn(C)c1Oc1cccc(C(F)(F)F)c1)c1ccc(C(=O)O)cc1 |  |  | human, plasma | 125 mg, cycle 1 day 8, mean |  | AUC(0-t) | 963 ng·h/mL
CN(C)c1cccc(C(=O)NCC2CCN(c3cc(-c4ccc(Cl)cc4)n[nH]3)CC2)c1 | Vero-E6 | CellTiter-Glo ATP |  | 72 h, second round 5-point | baseline: DMSO 0%, hyamine -100%, more negative, more toxic | maximum response | -25.4%
Cn1ncc(-c2nc(N[C@H]3CC[C@H](N)CC3)ncc2Cl)c1CC1CC1 |  | phase I dose escalation | human patients | dose not given, treatment-related grade 3 or higher |  | gamma-glutamyl transferase increase incidence | 3.2%
[O-][S+]1CCc2nc(N3CCC(c4ncc(Cl)cn4)CC3)nc(NC3(CO)CCC3)c21 (stereo not shown) |  |  | healthy male subjects | 48 mg single dose, 12.1 (unit not given), after last treatment |  | haemoglobin | 134 g/L
CC(C)=CC1C(C(=O)OC(C#N)c2cccc(Oc3ccccc3)c2)C1(C)C (stereo not shown) |  | item: CYP2C9 | human, age 1 year |  |  | enzyme contribution to clearance | 7.71%
C[C@H]1CN(c2n[nH]c3nc(N[C@H]4CC[C@H](NS(=O)(=O)CCC(F)(F)F)CC4)ncc23)CCO1 | MAPK14 (Homo sapiens, UniProt Q16539) | competitor, Kinobeads competition | HEK293, K562, placenta extract |  |  | Hill slope | 0.97
COc1cc2c(Oc3ccc4[nH]c(C)cc4c3F)ccnc2cc1OCC1(N)CC1 |  |  | paediatric recurrent refractory sarcoma | 8 mg |  | grade 3 Fever | 0%
CCc1ccc(CC/C=C/c2ccc3c(c2)C(=O)CC3)cc1 |  |  | Sprague-Dawley rat, female | oral, 120 mg/kg/day, 14 days |  | Fibrinogen | 2.25 g/L
CO[C@H]1C[C@@H]2CC[C@@H](C)[C@@](O)(O2)C(=O)C(=O)N2CCCC[C@H]2C(=O)O[C@H]([C@H](C)C[C@@H]2CC[C@@H](OC(=O)NCCOCCOCCOCCOCCOCCOCCOCCOCCC(=O)N3CCc4cc(Cn5nc(-c6ccc7oc(N)nc7c6)c6c(N)ncnc65)ccc4C3)[C@H](OC)C2)C[C@@H](O)[C@H](C)/C=C(\C)[C@@H](O)[C@@H](OC)C(=O)[C@H](C)C[C@H](C)/C=C/C=C/C=C/1C |  | phase 1 dose escalation, item: decreased appetite | advanced solid tumour patients | intravenous, 10 mg weekly, grade ≥3 |  | TRAE incidence | 0%
CCCSc1ccc2nc(NC(=O)OC)[nH]c2c1 |  |  | mouse, blood | oral, 50 mg/kg, tolerability, mean |  | eosinophils | 6.54%
CC(C)(O)c1cc(Nc2cc(Oc3cn(C4CC4)nc3C3CCOCC3)ccn2)ccn1 |  | Constipation | advanced cancer patients, dose escalation | oral, dose not given, 3 weeks on/1 off, all causality grade ≥3 |  | treatment-emergent adverse events | 0%
N[C@@H]1c2ccccc2OC12CCN(c1cnc3c(N4CCCc5ncccc54)n[nH]c3n1)CC2 |  | phase Ia | patients advanced metastatic solid tumours | oral, all doses, any relationship |  | peripheral oedema AE incidence | 46%
C[C@]1(CO)Cc2ncn(-c3ccc(C#N)c(Cl)c3)c2C(=O)O1 |  |  | human | 40 mg multiple doses, fasted |  | subjects with drug-related hyperhidrosis | 0%
COC[C@@H](CC(C)C)NC(=O)c1ccc(C)c(C)c1 |  |  | Hsd:ICR (CD-1) mouse, male, bone marrow | oral, 1352 mg/kg, 48 h |  | micronucleated PCE per 1000 PCE | 0.3
Cn1cc(-c2nc(N[C@@H]3CCCC[C@@H]3N)c(F)c3c2C(=O)NC3)cn1 |  | item: Melaena | patients with relapsed or refractory AML | oral, 60 mg twice daily |  | hemorrhagic adverse events | 13%
O=S(=O)(Nc1ccccc1)c1ccc(NC(=S)Nc2ccccc2)cc1 |  | item: RDW | female mouse, blood | oral, 80 mg/kg daily, 14 days |  | blood cell fraction | 16.4%
C/C(=N\C#N)N(C)Cc1ccc(Cl)nc1 |  |  | soil | 28 days, nominal 0.37 |  | recovery | 7%
CC(=O)c1c(C)c2cnc(Nc3ccc(C4CCN(CCS(C)(=O)=O)CC4)cn3)nc2n(C2CCCC2)c1=O |  |  | HR+/HER2- advanced breast cancer patients | oral, 100 mg, dose escalation |  | patients with serious adverse reactions | 0%
C[C@@H]1NC(=O)[C@H](CCCCNC(=O)CO/N=C/C(=O)NCCCC[C@@H]2NC(=O)[C@@H](Cc3ccccc3)NC(=O)[C@H](CC(=O)O)NC(=O)CNC(=O)[C@H](CCCNC(=N)N)NC2=O)NC(=O)CNC(=O)[C@@H]2CCCN2C(=O)[C@H](CCCCNC(=O)CO/N=C/C(=O)NCCCC[C@@H]2NC(=O)[C@@H](Cc3ccccc3)NC(=O)[C@H](CC(=O)O)NC(=O)CNC(=O)[C@H](CCCNC(=N)N)NC2=O)NC(=O)[C@H](CCCCNC(=O)CN2CCCNCCNCCCNCC2)NC(=O)[C@H](CCCCNC(=O)CO/N=C/C(=O)NCCCC[C@@H]2NC(=O)[C@@H](Cc3ccccc3)NC(=O)[C@H](CC(=O)O)NC(=O)CNC(=O)[C@H](CCCNC(=N)N)NC2=O)NC(=O)CNC(=O)[C@@H]2CCCN2C(=O)[C@H](CCCCNC(=O)CO/N=C/C(=O)NCCCC[C@@H]2NC(=O)[C@@H](Cc3ccccc3)NC(=O)[C@H](CC(=O)O)NC(=O)CNC(=O)[C@H](CCCNC(=N)N)NC2=O)NC1=O [copper-64 labelled] |  |  | normal mice, kidney | intravenous, 0.74 MBq, 3 h post-injection |  | tissue uptake | 18.9 ± 1.99 %ID/g
CC(C)C[C@H](NC(=O)[C@H](CCCCN)NC(=O)OCC1c2ccccc2-c2ccccc21)C(=O)N[C@H](C(=O)N[C@@H](Cc1ccccc1)C(=O)N[C@@H](Cc1ccccc1)C(=O)N[C@@H](CCCCN)C(=O)NCC(=O)N[C@@H](Cc1ccccc1)C(=O)N[C@@H](C)C(=O)N[C@@H](Cc1c[nH]c2ccccc12)C(=O)N[C@@H](CC(N)=O)C(=O)N[C@H](C(=O)N[C@H]1CSSC[C@@H](C(=O)N[C@@H](Cc2c[nH]cn2)C(=O)N[C@@H](CCCNC(=N)N)C(=O)N[C@@H](CCCNC(=N)N)C(=O)N[C@@H](C)C(=O)N[C@@H](CC(N)=O)C(N)=O)NC(=O)[C@H](C(C)C)NC(=O)[C@H](CCCNC(=N)N)NC(=O)[C@H](C(C)C)NC(=O)CNC(=O)[C@H](CC(N)=O)NC(=O)[C@H](CCCNC(=N)N)NC(=O)[C@H](Cc2ccc(O)cc2)NC(=O)[C@H](C(C)C)NC1=O)C(C)C)C(C)C |  |  | ICR mice, blood | intraperitoneal, 5 mg/kg, day 5 |  | mean corpuscular haemoglobin | 13.3 ± 0.29 pg
CCN1[C@@H](C(=O)NC23CCC(C(=O)O)(CC2)CC3)[C@H](c2cccc(Cl)c2F)[C@]2(C(=O)Nc3cc(Cl)ccc32)C12CCCCC2 |  |  | patients with advanced solid tumours | oral, 200 mg |  | Ageusia incidence | 0%
O=C(Oc1ccccc1)[c-]1cccc1.[Fe+2].c1cc[cH-]c1 |  | cyclic voltammetry | methanol/DMEM 1:1 with TBAPF6 | concentration not given, Pt disk electrode, Ag/AgCl reference, together with: scan rate 100 mV/s |  | reduction potential | 559 mV
COc1ccc(C[C@@H]2NC(=O)[C@H]([C@@H](C)O)NC(=O)[C@@H]3[C@@H]4CCN3C(=O)[C@@H]3Cc5cn(c6ccc(F)cc56)CCCCCCN(Cc5ccc(cc5)CCNC(=O)[C@]5(C)CCCN5C2=O)C(=O)CCC(=O)N[C@@H](C)C(=O)N[C@H](CNC(=O)CCCCC[N+](C)(C)C)C(=O)N[C@@H](Cc2cccc(c2)CNC(=O)CO4)C(=O)N3)cc1 |  | item: Erythema | humans | concentration not given, Study-003 |  | participants with adverse event | 0%
Clc1ccc(-c2ccccc2)cc1 |  |  | Sprague-Dawley rat female, serum | inhalation, 35 µg/rat, 24 h |  | serum total protein | 4 ± 0.3 g/dL
COc1ncccc1-c1cnn2ccc(N3CCN(C(=O)OC(C)C)CC3)nc12 |  |  | mouse formalin model, plasma | oral, 30 mg/kg, 60 min |  | free concentration | 280 nM
C[C@@H]1OC(=O)NN=C1c1ccc(-c2ccc(F)cc2)c(C(F)(F)F)c1 |  | phase I trial, item: non-cardiac chest pain all grades | human patients | 10 mg loading then 0.5 mg daily |  | patients with adverse event | 100%
Cc1cccc(N=Nc2ccc3[nH]cc(CCN(C)C)c3c2)c1 |  | light irradiation | solution | together with: light 530 nm |  | trans isomer at photostationary state | 85%

A few entries again:
SMILES | target or system | test | system | conditions | how to read | quantity | result
Clc1ccc(-c2ccccc2)cc1 |  |  | Sprague-Dawley rat female, serum | inhalation, 35 µg/rat, 24 h |  | serum total protein | 4 ± 0.3 g/dL
C[C@]1(CO)Cc2ncn(-c3ccc(C#N)c(Cl)c3)c2C(=O)O1 |  |  | human | 40 mg multiple doses, fasted |  | subjects with drug-related hyperhidrosis | 0%
[O-][S+]1CCc2nc(N3CCC(c4ncc(Cl)cn4)CC3)nc(NC3(CO)CCC3)c21 (stereo not shown) |  |  | healthy male subjects | 48 mg single dose, 12.1 (unit not given), after last treatment |  | haemoglobin | 134 g/L
Cn1ncc(-c2nc(N[C@H]3CC[C@H](N)CC3)ncc2Cl)c1CC1CC1 |  | phase I dose escalation | human patients | dose not given, treatment-related grade 3 or higher |  | gamma-glutamyl transferase increase incidence | 3.2%
C[C@H](NC(=O)c1c(C(F)F)nn(C)c1Oc1cccc(C(F)(F)F)c1)c1ccc(C(=O)O)cc1 |  |  | human, plasma | 125 mg, cycle 1 day 8, mean |  | AUC(0-t) | 963 ng·h/mL
